Measurements pooled from the literature.
Values joined by “and” are separate records of one study, mostly repeats; a detail may differ. ± gives the spread as reported. Values after ≈ are worked out from the molar mass of the structure shown.

| Compound | assay | system | conditions | how to read | quantity | value |
| --- | --- | --- | --- | --- | --- | --- |
| Cc1ccc([C@@H]2O[C@H](CO)[C@@H](O)[C@H](O)[C@H]2O)cc1Cc1ccc(-c2ccc(F)cc2)s1 | – | Japanese type 2 diabetes patients | 200 mg, day 1, 24 h urine collection | reference: baseline | urinary calcium excretion change | -25.7 mg |
| Cc1c(-c2ccc(N3CCc4cccc(C(=O)Nc5nc6ccccc6s5)c4C3)nc2C(=O)O)cnn1CC12CC3(C)CC(C)(C1)CC(OCCNCC[C@H](O)CO)(C3)C2 | – | beagle dog, male, anaesthetised | intravenous infusion, 0.01 mg/kg/min, 105 min | reference: baseline | mean arterial pressure change | 3 mmHg |
| O=C1CCc2ccc(OCCCCN3CCN(c4cccc(Cl)c4Cl)CC3)cc2N1 | – | CYP2D6 intermediate metabolizers | concentration not given, genotype-based phenotype, long-acting oral or depot | – | extrapyramidal symptom frequency | 9.2% |
| CNC(=O)c1ccccc1Nc1cc(Nc2ccc(N3CCOCC3)cc2OC)ncc1C(F)(F)F | – | 0.1% w/v Soluplus buffer | 24 h, pH 4.5, 37 °C | – | solubility | > 180 µg/mL |
| CN1CCC[C@H](CN2c3ccccc3Sc3ccccc32)C1.Cl | – | ICR mouse female fasted, heart | oral, 16 mg/kg | – | Tmax | 0.5 h |
| CCn1cc(C(=O)N2CCOCC2)c(=O)c2cc(NC3Cc4ccccc4C3)cnc21 | – | human, fasted | oral suspension, 300 mg single dose, arithmetic mean | – | half-life | 4.41 h |
| CCc1c(-c2ccccc2)c(-c2ccccc2)nn1-c1ccccc1-c1cccc(OCC(=O)O)c1 | – | Sprague-Dawley rat, small intestine | oral, 10 mg/kg, 4 h | – | concentration | 15800 ng/g and 21600 ng/g |
| CCCOc1ccc(NC(=O)CN2CCN(C)CC2)cc1-c1nc(CC)c(CC)c(=O)[nH]1 | – | healthy Chinese men | 10 mg, supine or semi-supine, added: placebo | – | AUEC(0-4 h) systolic BP | 2.65 ± 17.4 h·mmHg |
| COc1ccc([C@@H](O)c2cc(-c3ncnc4cc(N5CCOCC5)ccc34)c(F)cc2Cl)nn1 | – | locally advanced rectal cancer patients | 100 mg, added: capecitabine and radiotherapy | – | fatigue TEAE incidence | 83.3% |
| CO[C@H]1C[C@@H]2CC[C@@H](C)[C@@](O)(O2)C(=O)C(=O)N2CCCC[C@H]2C(=O)O[C@H]([C@H](C)C[C@@H]2CC[C@@H](OC(=O)NCCOCCOCCOCCOCCOCCOCCOCCOCCC(=O)N3CCc4cc(Cn5nc(-c6ccc7oc(N)nc7c6)c6c(N)ncnc65)ccc4C3)[C@H](OC)C2)C[C@@H](O)[C@H](C)/C=C(\C)[C@@H](O)[C@@H](OC)C(=O)[C@H](C)C[C@H](C)/C=C/C=C/C=C/1C | – | human, plasma | intravenous, 6 mg, cycle 1 | reference: day 15 over day 1 | AUClast ratio | 1.9 |
| O=C(O)CCCOc1ccc([18F])cc1-c1cc(-c2ccccc2C(F)(F)F)n(-c2ccccc2)n1 | dynamic PET | healthy male C57BL/6J mice, myocardium | intravenous, isoflurane anaesthesia | – | time to maximum uptake | 55 min |
| c1ccc(C2CCN(c3nc(-c4cnn5cccnc45)nc4ccccc34)C2)nc1 (stereo not shown) | – | Japanese Pharmacopoeia disintegration test solution 2 | pH 6.8 | – | kinetic solubility | 83 µg/mL (≈ 211 µM) |
| Cc1nn(CC(F)(F)F)cc1Nc1ncc(Br)c(NCc2ccc(S(N)(=O)=O)cc2)n1 | PAMPA | PBS | 5 h, pH 7.4 | – | PAMPA permeability | not detected |
| COc1cc2c3cc1Oc1c(OC)c(OC)cc4c1[C@@H](Cc1ccc(O)c(c1)Oc1ccc(cc1)C[C@@H]3N(C)CC2)N(C)CC4 | – | mouse plasma, K3EDTA | 2 h, 25-26 °C, room temperature | – | remaining compound | 96% |
| N#Cc1ccc2c(c1)[C@H]1CCCN(C(=O)c3ccc4[nH]cnc4c3)[C@H]1C2 | – | human females | 80 mg, day 7 | – | total testosterone level | 1.6 nmol/L |
| CCCCCc1ccc(C(=O)Oc2ccc(C#N)c(F)c2)cc1 | – | Sprague-Dawley rat, female, placenta | 5000 ng/mL in perfusate, 50 (unit not given), high dose, mixture of 21 LCMs | – | median placental accumulation | 37.6 ng/g |
| CSc1cc(C)nc(SC)c1NC(=O)CN1CCN(CCSc2nc3ccccc3[nH]2)CC1 | – | mouse Crl:CD1 (ICR), female, plasma | intranasal, 50 µL of 3.24 mg/mL solution, daily for 7 days, 120 min, 0.01 N HCl solution vehicle | – | concentration | 5.8 ng/mL |
| O=C(N[C@H](Cc1c[nH]c2ccccc12)C(=O)Nc1ccncc1)c1ccc(-c2ccc(F)c(Cl)c2)cc1F | – | Swiss Webster mouse, female, liver | oral, 50 mg/kg, 8 h, 20% Kolliphor vehicle | – | concentration | 60.8 µM |
| Cn1cc(Nc2nccc(-c3ccc4c(c3)CN(C3COC3)CC[C@H]4NC(=O)c3cn(C(C)(C)C)nn3)n2)cn1 | – | human, whole blood | 50 mg twice daily, day 14 | reference: pre-dose baseline | class-switched memory B cell change | 28.8% |
| O=C(O)CSc1nnc(Br)n1-c1ccc(C2CC2)c2ccccc12 | – | KM mouse, chronic hyperuricaemia model | dose not given, day 7 | – | body weight | 29.3 g and 24.6 g and 31.7 g and 29.2 g and 28.9 g and 23.9 g |
| CCn1c2ccc(CNCCOCCOCCOCCC(=O)NCCOc3ccc(CCc4nc5cc(-c6c(C)noc6C)ccc5n4CCN4CCOCC4)cc3F)cc2c2ccc(-c3cc(C)cs3)cc21 | – | Swiss albino mouse | intraperitoneal, 50 mg/kg, single dose | – | toxicity | not toxic |
| COCCOc1cnc2ccn([C@H](C)c3nnc4c(F)cc(-c5cnn(C)c5)cn34)c(=O)c2c1 | – | patients, plasma | oral, 200 mg once daily, day 1 24 h postdose | – | Ctrough | 420 ng/mL |

| Compound | assay | system | conditions | how to read | quantity | value |
| --- | --- | --- | --- | --- | --- | --- |
| CCCc1ccc(-c2ccc(-c3cc(F)c(F)c(F)c3)c(F)c2)cc1 | – | rat, fetus | 5000 ng/mL in perfusate, high dose, mixture of 21 LCMs | – | median fetal accumulation | 0.429 ng/g |
| Cc1nc2cccc(OCC(C)(C)C(=O)NC(C)C)c2c(N)c1C(=O)O | – | Swiss albino CD-1 mouse | oral, 1000 mg/kg, 48 h | – | mean body weight change | 1.5 ± 1 g |
| C=CC(=O)Nc1cc(Nc2nccc(-c3cn(C)c4ccccc34)n2)c(OC)cc1N(C)CCN(C)C | storage stability | human dried blood spots | 24 h, -80 °C, low QC level | – | recovery | 98.2% |
| COC(=O)c1ccc2c(c1)NC(=O)/C2=C(\Nc1ccc(N(C)C(=O)CN2CCN(C)CC2)cc1)c1ccccc1 | – | healthy volunteers, plasma | oral, 150 mg, added: pirfenidone | – | Vd/F | 15400 L |
| CNC(=O)c1ccc(-c2cnc3ncc(Cc4ccc5ncccc5c4)n3n2)cc1F | – | Japanese patients | oral, 400 mg twice daily, grade 3/4 | – | Vertigo patients | 0% |
| COc1cc(Nc2ncc3c(n2)-c2ccc(Cl)cc2C(c2c(F)cccc2OC)=NC3)ccc1C(=O)O | – | patients | oral, dose not given, grade 2, any attribution, added: pembrolizumab | – | decreased neutrophil count incidence | 13% |
| COc1cc2nccc(Oc3ccc(NC(=O)c4cc5c(n(-c6ccccc6)c4=O)CCCC5=O)nc3)c2cc1OC | – | relapsed or refractory AML | oral, 10 mg once daily | – | grade ≥3 Syncope patients | 14.3% |
| CN[C@@H](C)C(=O)N[C@H]1CN(C(=O)CC(C)C)CC[C@H]2CC[C@@H](C(=O)NC(c3ccccc3)c3ccccc3)N2C1=O | – | SCID mouse, urine | oral, dose not given | reference: absorbed amount | unchanged drug in urine | ~15% |
| CN(CCCN1CCN(C(=O)CN2CCN(CC(=O)[O-])CCN(CC(=O)[O-])CCN(CC(=O)[O-])CC2)CC1)c1ccc2nccc(C(=O)NCC(=O)N3CC(F)(F)C[C@H]3C#N)c2c1.[68Ga+3] | – | mice, HT-1080.hFAP and HT-1080 wild-type xenografts, adrenal | iv, 500 pmol, 1 h post injection | – | uptake | 0.5 ± 0.2 %IA/g |
| COc1ncc(-c2nc3c(n2C(C)C)[C@H](c2ccc(Cl)cc2)N(c2cc(Cl)cn(C)c2=O)C3=O)c(OC)n1 | – | human patients, plasma | oral, 45 mg, 0-24 h, low-dose arm, cycle 1 day 1 | – | AUC(0-t) geometric mean | 5230 ng·h/mL |
| CN1CCN(C(=O)CN(C)S(=O)(=O)c2ccc3ccccc3c2)CC1 | – | aqueous buffer | pH 7.4 | – | thermodynamic solubility | 2690 µM (≈ 971 µg/mL) |
| O=C1NCCc2nc(OCc3cccc(F)c3)ccc21 | measured: Vasodilatation | Sprague-Dawley rat male | oral, 100 mg/kg, 0 min | reference: baseline, direction not given | Irwin test score | 0 |
| CC(C)(C(=O)N1CCOc2c(C#N)cncc2C1)C(F)F | measured: abnormal urine odour | human, both sexes | oral, 15 mg twice daily, 14 days, multiple ascending dose | – | subjects with TEAE | 0% |
| Cc1ncc(CO)c(C(=O)O)c1O | – | Japanese men, plasma | dose not given | – | AUC(0-12h) | 28.2 ± 7.8 ng·h/mL |
| CNC(=O)c1ccc(-c2cnc3ncc(Cc4ccc5ncccc5c4)n3n2)cc1F | – | HCC patients | oral, 600 mg twice daily, all grades RP2D expansion | – | back pain incidence | 9% |
| CCc1cc(C(=O)NC)c2nccc(N3CCc4c(cc(Cn5ccnc5)cc4-c4cn(C)nc4C(F)(F)F)C3=O)c2c1 | measured: Baso | Sprague Dawley rat | oral, 50 mg/kg once daily, 7 days | reference: vehicle | change in clinical chemistry or haematology parameter | 5.88% |
| C[C@@H]1COCCN1c1cc(C2([S@](C)(=N)=O)CC2)nc(-c2cc[nH]c3nccc2-3)n1 | – | Japanese advanced solid tumour patients | oral, 240 mg twice daily, any grade | – | Paronychia incidence | 0% |
| O=C(O)c1cc(O)c(O)c(O)c1 | – | broiler chickens, serum | oral, in feed, 2000 mg/kg feed, wheat diet, no tannins | – | AUC | 1.35 ± 0.33 µM·h |
| C1=C/COCc2cc(ccc2OCCN2CCCC2)Nc2nccc(n2)-c2cccc(c2)COC/1 | – | rat plasma | 1200 ng/mL, 4 h, room temperature | reference: nominal concentration | stability relative error | -1.26% |
| O=C(Nc1nc2cccc(-c3ccc(CN4CCS(=O)(=O)CC4)cc3)n2n1)C1CC1 | measured: animal bite | human rheumatoid arthritis patients | oral, 200 mg once daily, 4 weeks, regardless of relatedness | – | treatment-emergent adverse events | 0% |
| Cc1ccc(Sc2ccccc2N2CCNCC2)c(C)c1 | measured: Diarrhea | healthy adult men | oral, 5 mg daily, 12 days | – | participants with TEAE | 0% |

Repeated from above:
| Compound | assay | system | conditions | how to read | quantity | value |
| --- | --- | --- | --- | --- | --- | --- |
| N#Cc1ccc2c(c1)[C@H]1CCCN(C(=O)c3ccc4[nH]cnc4c3)[C@H]1C2 | – | human females | 80 mg, day 7 | – | total testosterone level | 1.6 nmol/L |
| CCCCCc1ccc(C(=O)Oc2ccc(C#N)c(F)c2)cc1 | – | Sprague-Dawley rat, female, placenta | 5000 ng/mL in perfusate, 50 (unit not given), high dose, mixture of 21 LCMs | – | median placental accumulation | 37.6 ng/g |
| CSc1cc(C)nc(SC)c1NC(=O)CN1CCN(CCSc2nc3ccccc3[nH]2)CC1 | – | mouse Crl:CD1 (ICR), female, plasma | intranasal, 50 µL of 3.24 mg/mL solution, daily for 7 days, 120 min, 0.01 N HCl solution vehicle | – | concentration | 5.8 ng/mL |
| O=C(N[C@H](Cc1c[nH]c2ccccc12)C(=O)Nc1ccncc1)c1ccc(-c2ccc(F)c(Cl)c2)cc1F | – | Swiss Webster mouse, female, liver | oral, 50 mg/kg, 8 h, 20% Kolliphor vehicle | – | concentration | 60.8 µM |
| Cn1cc(Nc2nccc(-c3ccc4c(c3)CN(C3COC3)CC[C@H]4NC(=O)c3cn(C(C)(C)C)nn3)n2)cn1 | – | human, whole blood | 50 mg twice daily, day 14 | reference: pre-dose baseline | class-switched memory B cell change | 28.8% |
